Assay results of several laboratories.
A part holds a random share of what one study measured.

Series 1
Target: Prothrombin, mature alpha-thrombin (F2, Homo sapiens, UniProt P00734)
Technique: aptamer microarray, sandwich
Molecule type: DNA with 2'F-ANA
Sample: in vitro
Concentration: 200 nM
Setting: whole 15-mer aptamer, many near background
Together with: Cy3 exosite-II aptamer, 400 nM
Direction: higher = stronger binding
Quantity: mean fluorescence intensity
Sequence: GGTTGGTGTGGTTGG
Modification = 2'F-ANA at 1 3 6 7 8 9 11 12; value = 473 a.u.
Modification = 2'F-ANA at 3 4 6 7 9 12 13; value = 586 a.u.
Modification = 2'F-ANA at 1 2 3 5 7 9 10 13 14; value = 41.4 a.u.
Modification = 2'F-ANA at 4 7 8 11 13 14 15; value = 107 a.u.
Modification = 2'F-ANA at 6 8 9 10 11 13 15; value = 120 a.u.
Modification = 2'F-ANA at 1 3 7 8 9 12 13 14; value = 125 a.u.
Modification = 2'F-ANA at 1 2 4 5 7 9 14 15; value = 45.6 a.u.
Modification = 2'F-ANA at 2 4 6 12 15; value = 547 a.u.
Modification = 2'F-ANA at 2 5 6 8 10 12 13 14 15; value = 47.9 a.u.
Modification = 2'F-ANA at 1 3 4 5 6 12 14 15; value = 47.5 a.u.
Modification = 2'F-ANA at 1 2 5 8 9 12 13 15; value = 80.2 a.u.
Modification = 2'F-ANA at 3 4 5 6 7 8 9 12 15; value = 211 a.u.
Modification = 2'F-ANA at 3 5 6 7 8 9 10 11 13; value = 53.1 a.u.
Modification = 2'F-ANA at 3 5 6 7 9 11 12 13; value = 169 a.u.
Modification = 2'F-ANA at 3 4 5 6 8 12; value = 252 a.u.

Series 2
Target: Ras GTPase-activating protein-binding protein 1, C-terminal RGG region (G3BP1, Homo sapiens, UniProt Q13283)
UniProt Q13283, sequence (whole entry, looked up): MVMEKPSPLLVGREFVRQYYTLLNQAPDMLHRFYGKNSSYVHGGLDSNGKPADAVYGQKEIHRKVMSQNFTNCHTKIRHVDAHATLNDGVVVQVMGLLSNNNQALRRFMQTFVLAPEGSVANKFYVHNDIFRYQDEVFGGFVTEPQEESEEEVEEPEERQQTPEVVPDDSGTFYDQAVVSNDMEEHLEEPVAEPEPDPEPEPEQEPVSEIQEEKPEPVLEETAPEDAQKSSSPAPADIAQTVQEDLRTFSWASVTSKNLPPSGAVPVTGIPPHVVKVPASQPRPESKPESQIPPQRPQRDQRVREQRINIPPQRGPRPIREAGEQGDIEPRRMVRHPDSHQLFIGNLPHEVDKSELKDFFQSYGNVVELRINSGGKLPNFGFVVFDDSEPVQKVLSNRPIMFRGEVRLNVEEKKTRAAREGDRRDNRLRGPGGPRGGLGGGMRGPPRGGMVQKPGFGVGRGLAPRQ
Technique: RNA Bind-n-Seq
Molecule type: RNA
Sample: in vitro
Concentration: 1 µM
Setting: whole 134-nt RNA, ends assumed
Together with: 150 mM KCl
Baseline: input library
Direction: higher = stronger binding
Quantity: log2 enrichment
Shared flanks, not repeated: GGGAGUUCUACAGUCCGACGAUC … UGGAAUUCUCGGGUGUCAAGG
Sequence = UAACUUUAGAGGAGGAUCUGAUGGAUAUGACAGUGGACGUGGAUUUGGGGAUGGCUAUAAUGGGUAUGGAGGAGGACCUGGAGGUGGCAA; value = -1.56
Sequence = CCUGUGCUACACAUCGUAUGUACCGAAUCGGCCCCCCCGGCCCCCCCGGCCCCCCCGGGGAAAGUAUUAUGUUACGCCGUUCGGAUCUGC; value = -1.94
Sequence = CACAGACAACACGCACCCACACAGGCACAGAGGGAAGGGGUUGGGAUGGGGACAGGGUGCACAGCAGGGCGGGGUAGGACCCCAGCCCCU; value = -0.152
Sequence = CAAGUCCUGUGCUACACAUCGUAUGUACCGAAUCGGUUUGGUUUUUGGUUUUUGGAAAGUAUUAUGUUACGCCGUUCGGAUCUGCACUUC; value = -1.4
Sequence = UGUGCUACACAUCGUAUGUACCGAAUCGGGGUUUUUUUGGGUUUUUUUGGGUUUUUUUGGGGAAAGUAUUAUGUUACGCCGUUCGGAUCU; value = -0.72
Sequence = GUCCUGUGCUACACAUCGUAUGUACCGAAUCAAACCCCCAAAUUUUUAAAUUUUUAAAAAAGUAUUAUGUUACGCCGUUCGGAUCUGCAC; value = -0.609
Sequence = CCUCAAGUCCUGUGCUACACAUCGUAUGUACCGAAUCGGGAGGGAGGGAGGGGAAAGUAUUAUGUUACGCCGUUCGGAUCUGCACUUCCA; value = 3.19
Sequence = UUUUCUCACGAUGCACCUCCCCCUGGCACUAAGAAAAAGCACUUAUCCAUUGAGCAGCUGAAUGCUCGUCGCAGGAAAGUAUGGCUCAGC; value = -1.41
Sequence = CUCAAGUCCUGUGCUACACAUCGUAUGUACCGAAUCGGGCCGGGCCGGGGCCGGAAAGUAUUAUGUUACGCCGUUCGGAUCUGCACUUCC; value = -1.45

Series 3
Target: PABPC1L2, full length, GST fusion (mouse, UniProt A0ABA7IW68)
Technique: RNAcompete
Molecule type: RNA
Sample: in vitro
Concentration: 20 nM
Setting: 7-mer, probes averaged, single round
Baseline: mean of 7-mers
Direction: higher = stronger binding
Quantity: 7-mer Z-score
Residues (chain): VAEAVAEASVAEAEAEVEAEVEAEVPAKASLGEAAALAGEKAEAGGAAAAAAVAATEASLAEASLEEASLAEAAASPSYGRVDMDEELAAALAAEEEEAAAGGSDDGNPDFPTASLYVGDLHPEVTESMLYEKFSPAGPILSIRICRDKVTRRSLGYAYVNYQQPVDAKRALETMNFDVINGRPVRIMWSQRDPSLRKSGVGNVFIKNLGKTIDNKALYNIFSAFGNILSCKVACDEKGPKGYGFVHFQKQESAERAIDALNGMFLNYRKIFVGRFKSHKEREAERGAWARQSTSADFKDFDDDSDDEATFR
Sequence = CGGUCGG; value = -0.186
Sequence = UCGGGCC; value = -0.108
Sequence = GACCCUU; value = -0.244
Sequence = AAAUCGG; value = 1.35
Sequence = UUGGAGA; value = 0.0297
Sequence = CUAUGCG; value = -0.0917

Further values, each from its own experiment
Substance = PhoQ, residues 284 288 289 292 302 303 SSTLSG; target = PhoP, residues 12 14 15 18 19 QQAYL (Escherichia coli, UniProt P23836); test = Sort-seq, measured: YFP reporter; test system = E. coli; setting = PhoQ-PhoP variant library, together with: 10 µM Mg2+; scale = baseline: high Mg2+ state, higher = stronger signaling; quantity = fold induction; value = 5.26

For quick reference, copied from above (series 1):
Modification = 2'F-ANA at 2 5 6 8 10 12 13 14 15; value = 47.9 a.u.
Modification = 2'F-ANA at 1 3 4 5 6 12 14 15; value = 47.5 a.u.
